Assay results pooled from the literature.
Every numbered part comes from another study and shows a few of its results, in no order. Positions count from the first letter of the parent shown.

Block 1
Target: inorganic phosphate, free oxyanion
Technique: microfluidic competitive inhibition
Sample: in vitro, cell-free expressed
Tested at: not given
Setting: derived from inhibition constants, unchanged parent 615000 nM
Direction: lower = stronger binding
Starting sequence: PafA, mature enzyme, eGFP fusion (Elizabethkingia meningoseptica, UniProt Q9KJX5); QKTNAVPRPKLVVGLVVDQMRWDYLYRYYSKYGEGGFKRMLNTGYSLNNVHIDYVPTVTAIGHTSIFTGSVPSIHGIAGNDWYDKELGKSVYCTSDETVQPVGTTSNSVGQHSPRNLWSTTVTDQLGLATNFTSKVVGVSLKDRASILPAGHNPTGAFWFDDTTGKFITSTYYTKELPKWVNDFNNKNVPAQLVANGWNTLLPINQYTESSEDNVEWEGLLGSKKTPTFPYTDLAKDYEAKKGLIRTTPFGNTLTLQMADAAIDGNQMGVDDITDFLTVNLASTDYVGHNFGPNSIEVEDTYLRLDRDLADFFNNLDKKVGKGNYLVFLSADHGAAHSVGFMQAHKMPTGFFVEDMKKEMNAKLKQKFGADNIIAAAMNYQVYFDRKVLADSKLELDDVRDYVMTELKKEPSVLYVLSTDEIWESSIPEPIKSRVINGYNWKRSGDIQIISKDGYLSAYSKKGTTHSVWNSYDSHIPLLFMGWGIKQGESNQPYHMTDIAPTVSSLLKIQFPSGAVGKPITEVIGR
Substitution | phosphate dissociation constant [µM]
D391G | 649
V12A | 616
N186V | 641
E212G | 617
I61G | 67.9
M356G | 570
Q366G | 451
I427G | 345
T98V | 601
P149G | 96.6
F368V | 665
A335G | 580
W82V | 764
L506G | 518
G14V | 437

Block 2
Target: RING finger protein unkempt homolog, zinc fingers 1-6, GST-SBP tag (UNK, Homo sapiens, UniProt Q9C0B0, residues 30-357)
Technique: RNA Bind-n-Seq
Form: RNA
Sample: in vitro
Tested at: not given
Setting: RNA with constant flanks, human and mouse sites, ends assumed
Reference: input RNA pool
Direction: higher = stronger binding
Residues (chain): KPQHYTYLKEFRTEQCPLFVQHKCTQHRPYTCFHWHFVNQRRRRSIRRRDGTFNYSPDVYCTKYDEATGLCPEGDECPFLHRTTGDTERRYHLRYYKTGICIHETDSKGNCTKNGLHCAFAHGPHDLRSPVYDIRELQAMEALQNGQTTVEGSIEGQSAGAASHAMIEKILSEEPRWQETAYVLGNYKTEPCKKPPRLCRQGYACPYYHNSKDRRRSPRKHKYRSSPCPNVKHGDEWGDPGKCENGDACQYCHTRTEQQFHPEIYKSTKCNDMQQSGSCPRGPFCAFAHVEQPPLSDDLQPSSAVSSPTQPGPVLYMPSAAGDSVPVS
Sequence | bound/input enrichment [ratio]
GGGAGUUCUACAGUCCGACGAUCAGCUUUGCUGAGCCAUCAAGGUCUAAUGGAAGCAUGGUUCGGCAUUCUUCAUCUCCAUAUGUAGUAUAUCCUUCGGAUAAGCCUUUCCUUAAUAGUGAUCUACGACGCUCCCCAAGUAAGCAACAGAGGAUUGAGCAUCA | 0.75
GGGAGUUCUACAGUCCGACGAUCACCCGUGUAAACAUUAUUCCCCCCAGGAGAAAAUGGUGUUAUUCAAAUGAAUCAUAAUAAAAUAGCCUCUAAACAGUUUCUAAGCGGGAGCCUCCGUGGAACUCAGCGCUCCGCUCCUCCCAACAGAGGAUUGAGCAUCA | 1.01
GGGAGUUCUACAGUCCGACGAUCACUCCCCUCCCUCUAACAGCAGGCUGUGUGGGUUUCAAUUCCCAUCCUUCCCACCCCGGCUAGGUGUCGUCCACCCUGUAUCCUGUGUCUGAGUGUGUGUGGGGGGGUUCUGUACUAAUUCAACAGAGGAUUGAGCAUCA | 0.239
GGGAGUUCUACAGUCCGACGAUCACUAAAAUGUAGAUGACUUAACUGCCUCCUCCUUCGUCUGAAAAAUGCCAAUAUUCAAUCAUCAUGCAGCAUUAUAACAAGCCUUAUAAGUCCUAAAGCAUUAAGUUGCACUUUUUUGAGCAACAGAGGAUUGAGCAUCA | 0.189
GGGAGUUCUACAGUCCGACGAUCAGAGCGGUGUCGGCCGCUGAGGAGGUGCGAUCCCCUGUCGGGUUCCCGCUGCUCCGGACCAUGUACUCGGCCCACAGGCCCCUGAUACCCGCGUCUGGCGCGGCCUCUCGUGGCCUCGGCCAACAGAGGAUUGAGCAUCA | 0.0707
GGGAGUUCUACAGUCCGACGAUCACCACCCACACCACCCUGGAGCACUCUGAUUGUGCCUUCAUGGUAGACAAUGAGGCCAUCUAUGAUAUCUGUCGUAGAAACCUCGACAUUGAGCGCCCAACCUACACUAACCUAAACAGGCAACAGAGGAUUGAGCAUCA | 0.155
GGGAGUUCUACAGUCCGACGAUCGAGCUGGAGCAGAGCCUGCUAUUGGAGAAGGCGCAGGCCGAGCGGCUGCUCAGAGAAUUAGCGGAUAACAGGCUGACCACAGUGGCUGAGAAGUCUCGGGUGCUGCAGCUGGAAGAAGAGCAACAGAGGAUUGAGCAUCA | 0.275
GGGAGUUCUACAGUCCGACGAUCGAAGUAAAAAGUGUAGAACAGCAAGUUAUCGGCUUCAGUGGUCUGUCAGAUGACAAGAAUUACAAGAAACUGGAGAGGAUUCUAACAAAACAGCUUUUUGAAAUAGACUCUGUAGAUACUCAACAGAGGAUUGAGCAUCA | 0.321

Block 3
Target: Interferon regulatory factor 7, full length, phosphomimetic (IRF7, Homo sapiens, UniProt Q92985, residues 1-503, S471D/S472D/S475D/S476D/S477D/S483D/S484D/S487D)
Technique: protein-binding microarray
Form: double-stranded DNA, one strand shown
Sample: in vitro
Tested at: 2200 nM top
Setting: 60-bp whole probe
Added: salmon DNA 0.4 mg/ml
Reference: random background probes
Direction: higher = stronger binding
Shared flanks, not repeated: GCCTAGCAC … GTCTTGATTCGCTTGACGCTGCTG
Residues (chain): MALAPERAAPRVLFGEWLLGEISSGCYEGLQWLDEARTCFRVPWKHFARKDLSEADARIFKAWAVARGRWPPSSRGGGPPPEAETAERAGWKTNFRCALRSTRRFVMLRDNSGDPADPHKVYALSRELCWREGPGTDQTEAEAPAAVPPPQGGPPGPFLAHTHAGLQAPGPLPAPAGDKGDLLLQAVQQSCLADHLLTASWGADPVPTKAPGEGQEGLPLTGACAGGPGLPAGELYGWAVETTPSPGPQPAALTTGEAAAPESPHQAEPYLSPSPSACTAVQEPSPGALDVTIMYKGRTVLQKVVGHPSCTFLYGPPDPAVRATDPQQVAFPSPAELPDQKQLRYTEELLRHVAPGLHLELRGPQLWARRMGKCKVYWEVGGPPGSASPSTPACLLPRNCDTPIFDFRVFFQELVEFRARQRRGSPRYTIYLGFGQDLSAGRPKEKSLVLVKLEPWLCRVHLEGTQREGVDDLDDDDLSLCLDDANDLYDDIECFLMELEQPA
Sequence | fitted relative affinity [z-score]
GCCGGTATCCTTATCCTGACGTGCTAG | 0.97
ATAGGTTCCCTTTTCCTTTAGTGCTAG | 3.29
GAGGGTTTCGGGACTGGGGACGTGCTA | 1.47
TTCGGTTTCGGGTTTCGGTTAGTGCTA | 12.3
TTAGGTTTCGGTCTCGCTTAGTGCTAG | 6.61
GACGGTTTCGACTATCGCGACGTGCTA | 3.41
TTAGCTCTCAGACTGGATTAGTGCTAG | -0.21
GACGGTTTCGGTATCGGGAAGTGCTAG | 7.86

Block 4
Target: UDP-N-acetylglucosamine--peptide N-acetylglucosaminyltransferase 110 kDa subunit (OGT, Homo sapiens, UniProt O15294)
Sequence of UniProt O15294 (whole entry, looked up): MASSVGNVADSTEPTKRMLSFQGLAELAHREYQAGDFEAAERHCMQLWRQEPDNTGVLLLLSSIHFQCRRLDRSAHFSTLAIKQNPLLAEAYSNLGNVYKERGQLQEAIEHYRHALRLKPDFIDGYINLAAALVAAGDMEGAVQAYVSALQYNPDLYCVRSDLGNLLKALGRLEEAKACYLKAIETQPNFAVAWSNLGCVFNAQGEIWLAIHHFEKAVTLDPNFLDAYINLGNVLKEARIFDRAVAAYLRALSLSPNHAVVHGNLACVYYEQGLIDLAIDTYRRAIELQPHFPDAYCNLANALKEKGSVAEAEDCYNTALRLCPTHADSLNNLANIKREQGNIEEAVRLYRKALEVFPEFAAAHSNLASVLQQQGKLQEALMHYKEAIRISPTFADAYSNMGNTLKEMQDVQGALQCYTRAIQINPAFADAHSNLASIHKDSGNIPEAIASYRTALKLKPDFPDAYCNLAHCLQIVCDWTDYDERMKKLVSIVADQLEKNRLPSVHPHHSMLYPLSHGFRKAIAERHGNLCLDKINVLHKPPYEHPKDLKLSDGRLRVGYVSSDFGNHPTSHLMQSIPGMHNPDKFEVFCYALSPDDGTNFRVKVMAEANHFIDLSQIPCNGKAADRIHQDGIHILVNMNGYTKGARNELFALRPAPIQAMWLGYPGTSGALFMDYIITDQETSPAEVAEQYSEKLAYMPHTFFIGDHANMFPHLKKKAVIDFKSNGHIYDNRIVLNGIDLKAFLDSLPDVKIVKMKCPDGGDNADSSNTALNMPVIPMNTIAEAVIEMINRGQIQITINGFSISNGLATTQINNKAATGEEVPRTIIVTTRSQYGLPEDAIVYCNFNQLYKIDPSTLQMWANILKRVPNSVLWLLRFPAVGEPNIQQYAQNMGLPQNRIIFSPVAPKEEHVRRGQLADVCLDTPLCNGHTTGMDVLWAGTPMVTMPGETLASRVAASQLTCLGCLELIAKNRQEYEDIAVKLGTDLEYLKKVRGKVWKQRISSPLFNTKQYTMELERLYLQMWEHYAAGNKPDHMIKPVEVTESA
Observed: phage display binding
Technique: phage display panning NGS
Form: peptide
Reference: OGT-panned over input library
Molecule | log2 fold enrichment
TMRHTHDWIWQHGVQ | 3.44
ANYLPMYQMPVTVY | 1.69
VQQQFWPMYEIEYDK | 4.21
HFADSRSWHHYSTGH | 1.98
SMAWHHPHGYHWPQA | 2.32

Repeated from above (block 3):
Sequence | fitted relative affinity [z-score]
GAGGGTTTCGGGACTGGGGACGTGCTA | 1.47
TTAGGTTTCGGTCTCGCTTAGTGCTAG | 6.61
TTCGGTTTCGGGTTTCGGTTAGTGCTA | 12.3
GACGGTTTCGGTATCGGGAAGTGCTAG | 7.86
